# Measured values from different studies.
# A part holds a random share of what one study measured.

# Block 1 — technique: RNA Bind-n-Seq; form: RNA; sample: in vitro; concentration: 1 µM; setting: whole 134-nt RNA, ends assumed; added: 150 mM KCl; relative to: input library; reading: higher = stronger binding
# Target: Ras GTPase-activating protein-binding protein 1, C-terminal RGG region (G3BP1, Homo sapiens, UniProt Q13283)
# Chain of UniProt Q13283 (whole entry, looked up): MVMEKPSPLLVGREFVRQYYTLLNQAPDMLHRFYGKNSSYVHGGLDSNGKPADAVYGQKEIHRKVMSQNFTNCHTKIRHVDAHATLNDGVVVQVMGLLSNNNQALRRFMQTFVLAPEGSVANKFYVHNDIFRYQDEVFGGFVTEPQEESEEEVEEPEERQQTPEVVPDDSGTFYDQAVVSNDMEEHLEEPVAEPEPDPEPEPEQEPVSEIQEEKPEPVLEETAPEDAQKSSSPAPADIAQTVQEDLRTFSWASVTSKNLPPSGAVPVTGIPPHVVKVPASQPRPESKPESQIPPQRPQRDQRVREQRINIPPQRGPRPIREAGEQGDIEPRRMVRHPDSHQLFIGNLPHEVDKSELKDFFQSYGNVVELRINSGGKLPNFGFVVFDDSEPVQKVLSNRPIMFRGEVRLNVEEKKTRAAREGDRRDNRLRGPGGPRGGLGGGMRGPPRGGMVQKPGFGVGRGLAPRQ
# Constant ends, left off below: GGGAGUUCUACAGUCCGACGAUC … UGGAAUUCUCGGGUGUCAAGG
Strand,log2 enrichment
GUCCUGUGCUACACAUCGUAUGUACCGAAUCGGAAAAAAGGAAAAAAGGGAAAAAAGGAAAGUAUUAUGUUACGCCGUUCGGAUCUGCAC,-1.48
UGGCCCUGGCGGCAUGCGGGGAGGAAGAGGUGGCCUCAUGGAUCGUGGUGGUCCCGGUGGAAUGUUCAGAGGUGGCCGUGGUGGAGACAG,2.07
UCAAGUCCUGUGCUACACAUCGUAUGUACCGAAUCGGGGCCGGGCCGGGCCGGGGAAAGUAUUAUGUUACGCCGUUCGGAUCUGCACUUC,-0.0689
UCCUGUGCUACACAUCGUAUGUACCGAAUCGGGUUUGGGAAAAAAAGGGUUUUUUUGGGAAAGUAUUAUGUUACGCCGUUCGGAUCUGCA,-0.175
GCAGGAAGUAAAAACAAAUGGAAAUGCUUCGGAUAGUGGCAGGGGUGGGGGUUGCUAAGGAAAGGGUGGGAUAGGAGUGGGUAAAGAGUU,1.86
CACAGACAACGCGCACCCACACAGACACAGAGGGAAGGGGUUGGGAUGGGGACAGGGUGCACAGCAGGGCGGGGUAGGACCCCAGCCCCU,-0.253
CCUCAAGUCCUGUGCUACACAUCGUAUGUACCGAAUCGGGCGGGGCGGCGGGAAAGUAUUAUGUUACGCCGUUCGGAUCUGCACUUCCAG,-0.365
UUCACAGGUAAGUGGGGCAGUGUCCGGACCAGUGGACGCAGCAGUGGCCUUGGCACCGAUGUGGGCUCCCGGCUAGCUGGCAGAGACGCG,0.314
UCCUGUGCUACACAUCGUAUGUACCGAAUCGGUUUUUGGGGUUUUUGGGGUUUUUGGGGAAAGUAUUAUGUUACGCCGUUCGGAUCUGCA,-0.0788
AGUCCUGUGCUACACAUCGUAUGUACCGAAUCGGGUUUGGGUUUUUUUGGGAAAGGGAAAGUAUUAUGUUACGCCGUUCGGAUCUGCACU,0.652
CACAGACAACACGCACCCACACAGACACAGAGGGAAGGGGUUGGGAUGGGGACAGGGUGCACAGCAGGGCGGGGUAAAACCCCAGCCCCU,-0.139
UGGGAGGUGGAUUUUGUUUAUUUUUUUAGCUCAUUUCCAGGGGUGGGAAUUUUUUUUUAAUAUGUGUCAUGAAUAAAGUUUUUUUUGAAA,3.52
UGUGUGACUUCCUUGGAGAGAAGAUUGCAUCUGUUUUGGGUAUCAGCACCCCAAAGUACCAAUAUGCCAUUGAUGAAUAUUAUCGGAUGA,-0.717
CACAGACAACACGCACCCACACAGACACAGAGGGAAGGGGUUGGGAUGGGGACUGGGUGCACAGCAGGGCGGGGUAGGACCCCAGCCCCU,1.13

# Block 2 — technique: protein-binding microarray; form: double-stranded DNA, one strand shown; sample: in vitro; concentration: 940 nM top; setting: 60-bp whole probe; added: salmon DNA 0.4 mg/ml; relative to: random background probes; reading: higher = stronger binding; constant ends, left off below: GCCTAGCAC … GTCTTGATTCGCTTGACGCTGCTG
# Target: Interferon regulatory factor 5, full length, phosphomimetic (IRF5, Homo sapiens, UniProt Q13568-2, residues 1-514, S451D/S453D/S456D/S462D)
Strand,fitted relative affinity [z-score]
GACGGTATCCTACTTCTGACGTGCTAG,0.00786
TTAGAACTGAGTTTCTATTAGTGCTAG,2.52
TTAGGTATCCTTCTCCTTCAGTGCTAG,0.427
GCTTCCTCCTACCCGACCCCGTGCTAG,0.809
TTAGAACTGAGTCTCGATAAGTGCTAG,2.28
AGAAGATAAGCTGCAAGAAAGTGCTAG,-0.536
TTAGAACTGCGTATCGATTAGTGCTAG,1.08
GACGATATCGGGTATCGAGCCGTGCTA,0.619
TCAGCTTTCCTGATGACACTGTGCTAG,-0.0963
GACGGTATCGGTATCGTGACGTGCTAG,7.6
GACGGACTGGATTTTCGGGACGTGCTA,-0.222
CTCTGTCCCTGTTTCTACTGGTGCTAG,1.37
TTCAGTCCCCTCTTCTGGATGTGCTAG,0.247
AATACCTTCGAGTCTGCAACAGTGCTA,0.35
GACGGTTTCGGACTGGCGACGTGCTAG,6.24
GACGGTTCCGGTTTCGGGAAGTGCTAG,5.87
ACCATTTTGGTTTTCCTTATGTGCTAG,1.15

# Block 3 — technique: RNA Bind-n-Seq; form: RNA; sample: in vitro; concentration: 365 nM; relative to: no-protein control; reading: higher = stronger binding
# Target: RNA binding protein fox-1 homolog 2, RRM domain, GST-SBP tag (RBFOX2, Homo sapiens, UniProt O43251-10, residues 100-194)
# Setting: natural RNA segment, single round, ends assumed
# Constant ends, left off below: GGGAGUUCUACAGUCCGACGAUC … UGGAAUUCUCGGGUGCCAA
# Target sequence (chain): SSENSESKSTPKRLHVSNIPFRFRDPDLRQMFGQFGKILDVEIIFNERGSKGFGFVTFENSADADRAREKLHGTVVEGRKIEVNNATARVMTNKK
Strand,RBNS enrichment (R)
UGCCCCACCCCAAGCGAACGGUAAGAAGGCCUCUCUUAAGAAGGGGAGACAGAUGGCCCUAACUACUCAGUGACAGAGGCAGUUACUGUGAGAGACUUGUAGGAAUUUUU,0.701
UGGCUCUCAUUUGCCUCCUCAGAAGAGUGGGACAGGGCUCCAUGGGAGACCCAGAGUUCAGGCUACACACAGCUGUAAAACAGCCCCAAUCCUGACUCUGGCUAUUCGCU,0.205
AGACACUUCCUGAGAGUCUCACCUUCAAAAUGACACCGCUGCCCAUCCAUUGCUCAAUGGUACAGAGUGUGGGGUCAGUCCACCACCCUUGACCUCCCGGCAGGGCAAGG,0.283
UUACUGUACCCUGCAGUGUUGAUUUUUAAAAUAGAGUUUUCUGCAGUAUGCUUUUAGUCUAAGAAAAGCACAGAUGGAGCAAUACUUUCCUUCUUUGAAGAGAAUCCCAA,0.658
AGCGCUGUAUCUGCAGUGGCAGCCCUUCCCCACUUCGGCUCUGGGAGGGUCCAGCCAGUGUCACCUGGGCCCACCCUUUCCUGCAGCUGCCAGGCCCGUGCGGUCAGUGG,0.379
GAGUGAUCCCAUUUCUUAAUCAGUGUAGCCCCAAGAAGGCUGGGGCUAUUUACCAGGGUAGAAAAAGGAGCUUACCUCCCACCUUUGGUCCUAAGUCCCUGCCCCCUCCC,0.417
CCUAAGCCCCCUCCCCAACAAGAUAUCUGCCGAGCUGUCAGGCCCAGCCCACCCUACACCGUGCAAUACCCAGACCCAGCCUGGUCUUUCCCCAGGCCUUUGCCCGCUUC,3.82
CUGACUCAGUUUCUCUUGUUGGGUGGGGGCCUUGUGCCACAACCUGCAUGGGGUGCUAGGGUUUAAACCAAGUGGUCACGAAGGAUUCUUAUCUCAGGGCUCUGCCUGGC,0.264
CUCCUCCACUCUAUAAGCAGUCAUCUUGGGAGACCGGGAGGAGAAGGUGGUGGGCUAGUCCUGUGUCCUCCUCCACUUCCCAUGCCUCUAUGUUACCCAUCUGUGUCUCC,0.514
UACAUUUGUUAAGGUAUGCGCAUAAUUACAGCAACUGUUUUUAUAGUUUGUAUCCCAGAGUAUACUGUGUUGAAAUAAGAAGAUGCAUAGCAGCUGAAUGCAUGCAUGAC,0.496
UGAGAAAUUCUCAGUGAUUCUGCAAUGGAUUUUUUUUUAAUGCAGAAGUAAUGUAUACUCUAGUAUUCUGGUGUUUUUAUAUUUAUGUAAUAAUUUCUUAAAACCAUUCA,0.516
GAAAAUGACCGCUCCUUGACCAAACUGAGAUGCACUUGGUGUGUGGGAACUGAUUGCUUCCUCCCUGUUUAUAAUUCAGUGAAUAAUCACGGGCCCAAUAUUUUACUAAC,0.652

# Block 4 — technique: protein binding microarray; form: double-stranded DNA, one strand shown; sample: in vitro; concentration: not given; relative to: not given; reading: higher = stronger binding
# Target: Histone acetyltransferase KAT6A, winged helix 1, GST fusion (KAT6A, Homo sapiens, UniProt Q92794, residues 1-85)
# Setting: 8-mer, flanks averaged, mean of 2 arrays, mostly near background
# Residues (chain): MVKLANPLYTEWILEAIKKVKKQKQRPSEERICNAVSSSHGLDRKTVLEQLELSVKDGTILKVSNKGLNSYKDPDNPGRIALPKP
Strand,E-score
AGATGTTA,-0.175
CCTATGGC,0.00927
CCGTCATA,0.223
CGATCTAC,-0.0733
CGTCGACA,0.0404
AAACCGTA,0.119
CTACCGAA,-0.111
CAGTTGTC,-0.214
CGAGAGTA,-0.0364
AAGAACGT,-0.0649
AGGATACT,-0.0857
ATGAATAA,-0.212
CCGGGGCG,0.342
ACTTATCT,-0.215
GTAATTAC,0.13
AGTGTTAT,-0.0964
CCCTATGA,-0.0747
CTTCGCTA,-0.191
AGTCCACG,0.0833
ACCTAGAA,-0.191
CCTCCAGC,-0.00235
CAACTCGC,0.00199

# Repeated from above (block 2):
Strand,fitted relative affinity [z-score]
TCAGCTTTCCTGATGACACTGTGCTAG,-0.0963
GACGGTATCGGTATCGTGACGTGCTAG,7.6
GACGGACTGGATTTTCGGGACGTGCTA,-0.222
CTCTGTCCCTGTTTCTACTGGTGCTAG,1.37
TTCAGTCCCCTCTTCTGGATGTGCTAG,0.247
AATACCTTCGAGTCTGCAACAGTGCTA,0.35
GACGGTTTCGGACTGGCGACGTGCTAG,6.24
GACGGTTCCGGTTTCGGGAAGTGCTAG,5.87
ACCATTTTGGTTTTCCTTATGTGCTAG,1.15
